Published values of several laboratories.
Each line is one published result; not all experiments were run side by side. Values joined by “and” are separate records of one study, mostly repeats; a detail may differ. Numbers after ± are the reported error.
Rhomboid protease AarA: Rhomboid protease AarA (Providencia stuartii, UniProt P46116)
Chain of UniProt P46116 (whole entry, looked up): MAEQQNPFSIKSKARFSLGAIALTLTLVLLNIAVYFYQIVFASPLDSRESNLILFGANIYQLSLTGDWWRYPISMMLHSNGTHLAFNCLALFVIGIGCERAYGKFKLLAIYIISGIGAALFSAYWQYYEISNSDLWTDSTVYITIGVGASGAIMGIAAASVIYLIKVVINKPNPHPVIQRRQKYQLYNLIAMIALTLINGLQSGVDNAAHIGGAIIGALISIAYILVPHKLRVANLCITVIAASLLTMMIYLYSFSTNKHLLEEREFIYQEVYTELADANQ
PPARG: Peroxisome proliferator-activated receptor gamma (PPARG, Homo sapiens, UniProt P37231)
Chain of UniProt P37231 (whole entry, looked up): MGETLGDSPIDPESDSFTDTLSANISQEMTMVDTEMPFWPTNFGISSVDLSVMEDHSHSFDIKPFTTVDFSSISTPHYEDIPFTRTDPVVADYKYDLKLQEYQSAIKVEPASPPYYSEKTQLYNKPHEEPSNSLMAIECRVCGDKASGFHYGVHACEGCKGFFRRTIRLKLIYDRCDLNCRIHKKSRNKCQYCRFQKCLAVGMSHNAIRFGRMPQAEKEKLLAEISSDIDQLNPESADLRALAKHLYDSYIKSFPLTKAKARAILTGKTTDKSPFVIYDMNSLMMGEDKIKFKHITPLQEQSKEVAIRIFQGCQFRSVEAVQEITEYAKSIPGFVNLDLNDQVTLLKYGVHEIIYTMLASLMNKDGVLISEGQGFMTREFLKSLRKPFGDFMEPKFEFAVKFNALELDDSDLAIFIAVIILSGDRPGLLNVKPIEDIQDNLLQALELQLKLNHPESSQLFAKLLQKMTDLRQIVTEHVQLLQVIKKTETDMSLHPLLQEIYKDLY
HDAC1: Histone deacetylase 1 (HDAC1, Homo sapiens, UniProt Q13547)
Chain of UniProt Q13547 (whole entry, looked up): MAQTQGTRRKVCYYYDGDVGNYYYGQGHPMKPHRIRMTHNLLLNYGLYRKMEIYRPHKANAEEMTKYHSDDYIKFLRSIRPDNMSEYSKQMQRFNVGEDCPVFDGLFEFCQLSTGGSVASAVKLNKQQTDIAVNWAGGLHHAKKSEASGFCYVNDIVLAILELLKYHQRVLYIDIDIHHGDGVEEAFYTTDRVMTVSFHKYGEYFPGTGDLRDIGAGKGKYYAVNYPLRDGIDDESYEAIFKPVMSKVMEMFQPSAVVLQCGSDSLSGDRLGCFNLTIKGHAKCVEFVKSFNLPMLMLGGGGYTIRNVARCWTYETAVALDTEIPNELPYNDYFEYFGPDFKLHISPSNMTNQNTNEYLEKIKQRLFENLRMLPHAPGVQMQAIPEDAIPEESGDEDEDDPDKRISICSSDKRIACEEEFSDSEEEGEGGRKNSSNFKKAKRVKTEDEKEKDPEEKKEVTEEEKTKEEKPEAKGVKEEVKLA
HCK: Tyrosine-protein kinase HCK (HCK, Homo sapiens, UniProt P08631)
Chain of UniProt P43358 (whole entry, looked up): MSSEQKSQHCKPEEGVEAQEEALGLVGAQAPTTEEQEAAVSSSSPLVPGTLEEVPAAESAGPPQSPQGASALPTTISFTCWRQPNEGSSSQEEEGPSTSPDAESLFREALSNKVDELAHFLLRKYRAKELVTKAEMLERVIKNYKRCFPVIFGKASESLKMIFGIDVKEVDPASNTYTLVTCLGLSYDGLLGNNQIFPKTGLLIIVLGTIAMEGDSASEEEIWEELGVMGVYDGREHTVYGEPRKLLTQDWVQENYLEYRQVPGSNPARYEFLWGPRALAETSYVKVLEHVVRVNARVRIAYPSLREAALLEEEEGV
Chain of UniProt P51681 (whole entry, unmodified, looked up): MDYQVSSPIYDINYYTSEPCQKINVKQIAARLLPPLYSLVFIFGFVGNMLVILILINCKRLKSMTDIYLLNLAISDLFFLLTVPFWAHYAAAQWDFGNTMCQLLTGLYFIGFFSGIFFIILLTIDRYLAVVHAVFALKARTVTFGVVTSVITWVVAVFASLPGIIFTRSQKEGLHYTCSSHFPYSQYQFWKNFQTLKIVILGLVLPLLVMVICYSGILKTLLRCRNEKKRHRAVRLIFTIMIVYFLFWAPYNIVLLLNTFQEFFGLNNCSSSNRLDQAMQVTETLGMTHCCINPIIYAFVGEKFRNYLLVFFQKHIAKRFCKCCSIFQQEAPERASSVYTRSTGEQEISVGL
Chain of UniProt P49840 (whole entry, looked up): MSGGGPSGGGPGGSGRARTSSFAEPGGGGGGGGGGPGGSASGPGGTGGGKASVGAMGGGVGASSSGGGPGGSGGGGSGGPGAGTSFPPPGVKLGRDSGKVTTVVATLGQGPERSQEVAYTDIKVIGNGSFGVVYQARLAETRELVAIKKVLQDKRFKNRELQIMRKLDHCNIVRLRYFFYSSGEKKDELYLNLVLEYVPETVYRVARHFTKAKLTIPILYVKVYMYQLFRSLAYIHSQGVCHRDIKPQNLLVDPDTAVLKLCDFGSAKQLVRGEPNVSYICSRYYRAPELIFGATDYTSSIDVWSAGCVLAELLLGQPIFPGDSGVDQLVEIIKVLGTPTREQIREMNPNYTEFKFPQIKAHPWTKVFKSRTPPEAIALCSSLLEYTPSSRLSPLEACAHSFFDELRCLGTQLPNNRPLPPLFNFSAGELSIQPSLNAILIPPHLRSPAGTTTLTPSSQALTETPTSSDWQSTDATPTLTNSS
Chain of UniProt P51692 (whole entry, looked up): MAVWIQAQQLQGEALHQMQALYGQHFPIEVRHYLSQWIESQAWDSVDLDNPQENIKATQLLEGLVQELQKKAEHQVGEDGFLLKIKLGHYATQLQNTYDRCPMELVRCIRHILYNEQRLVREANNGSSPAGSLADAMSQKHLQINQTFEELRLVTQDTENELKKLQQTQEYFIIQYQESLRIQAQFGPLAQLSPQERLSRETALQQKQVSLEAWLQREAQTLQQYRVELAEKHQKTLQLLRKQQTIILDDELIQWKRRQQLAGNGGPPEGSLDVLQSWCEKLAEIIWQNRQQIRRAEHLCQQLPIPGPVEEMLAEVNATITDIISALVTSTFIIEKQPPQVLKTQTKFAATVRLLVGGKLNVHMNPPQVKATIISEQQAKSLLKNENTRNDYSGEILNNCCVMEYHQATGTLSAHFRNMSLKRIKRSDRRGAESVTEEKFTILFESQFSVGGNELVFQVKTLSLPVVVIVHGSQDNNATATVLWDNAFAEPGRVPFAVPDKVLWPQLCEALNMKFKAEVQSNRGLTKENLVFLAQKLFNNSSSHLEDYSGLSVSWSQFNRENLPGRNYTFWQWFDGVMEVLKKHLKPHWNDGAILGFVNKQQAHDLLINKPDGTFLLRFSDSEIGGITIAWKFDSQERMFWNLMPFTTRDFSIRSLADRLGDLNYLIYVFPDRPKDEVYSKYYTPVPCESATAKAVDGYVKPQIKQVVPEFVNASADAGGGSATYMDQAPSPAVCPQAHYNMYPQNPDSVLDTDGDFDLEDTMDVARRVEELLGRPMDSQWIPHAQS
Chain of UniProt Q9UQL6 (whole entry, looked up): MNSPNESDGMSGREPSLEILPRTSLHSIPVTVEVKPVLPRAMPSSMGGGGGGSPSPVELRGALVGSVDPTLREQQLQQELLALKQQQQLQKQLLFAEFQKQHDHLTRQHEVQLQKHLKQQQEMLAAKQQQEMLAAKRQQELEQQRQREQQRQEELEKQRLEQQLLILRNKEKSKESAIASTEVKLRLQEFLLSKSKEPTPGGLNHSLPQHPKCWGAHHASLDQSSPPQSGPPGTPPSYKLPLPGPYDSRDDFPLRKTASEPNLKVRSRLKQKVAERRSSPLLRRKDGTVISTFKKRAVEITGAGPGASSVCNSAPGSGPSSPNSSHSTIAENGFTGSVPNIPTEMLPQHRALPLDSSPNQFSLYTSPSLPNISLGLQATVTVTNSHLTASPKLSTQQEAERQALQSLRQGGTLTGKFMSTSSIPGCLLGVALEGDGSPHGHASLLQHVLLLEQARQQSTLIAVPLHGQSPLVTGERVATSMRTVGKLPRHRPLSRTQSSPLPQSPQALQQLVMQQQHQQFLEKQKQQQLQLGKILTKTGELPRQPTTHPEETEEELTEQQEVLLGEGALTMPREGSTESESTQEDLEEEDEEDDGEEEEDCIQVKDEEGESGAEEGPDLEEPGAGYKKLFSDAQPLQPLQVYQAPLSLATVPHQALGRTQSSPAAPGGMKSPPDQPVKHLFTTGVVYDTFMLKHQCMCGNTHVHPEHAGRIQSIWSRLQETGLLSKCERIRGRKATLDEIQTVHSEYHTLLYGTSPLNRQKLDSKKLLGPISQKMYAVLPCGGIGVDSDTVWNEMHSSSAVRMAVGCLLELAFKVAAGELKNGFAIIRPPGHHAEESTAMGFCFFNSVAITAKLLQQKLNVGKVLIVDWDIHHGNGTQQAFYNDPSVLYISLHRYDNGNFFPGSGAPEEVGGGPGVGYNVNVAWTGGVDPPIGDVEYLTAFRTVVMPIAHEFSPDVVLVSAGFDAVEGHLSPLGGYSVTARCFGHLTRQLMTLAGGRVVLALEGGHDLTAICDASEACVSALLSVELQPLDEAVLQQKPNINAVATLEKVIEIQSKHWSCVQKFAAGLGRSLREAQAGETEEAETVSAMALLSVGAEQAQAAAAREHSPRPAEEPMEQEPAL
Chain of UniProt P04406 (whole entry, looked up): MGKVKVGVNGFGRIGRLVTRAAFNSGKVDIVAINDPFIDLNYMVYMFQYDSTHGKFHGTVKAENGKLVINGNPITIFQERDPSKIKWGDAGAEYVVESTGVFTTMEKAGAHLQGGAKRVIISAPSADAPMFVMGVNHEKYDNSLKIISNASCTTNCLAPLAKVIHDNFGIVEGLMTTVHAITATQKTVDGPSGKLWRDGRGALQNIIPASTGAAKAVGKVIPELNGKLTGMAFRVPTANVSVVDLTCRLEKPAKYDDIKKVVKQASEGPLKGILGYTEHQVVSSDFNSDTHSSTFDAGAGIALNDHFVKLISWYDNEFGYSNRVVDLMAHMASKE

Structure (SMILES) | tested on | assay | system | setting | how to read | quantity | value
Cc1ccc(NC(=O)C(C(F)(F)F)C(F)(F)F)cc1 | Rhomboid protease AarA | enzyme activity, inhibitor, fluorescence |  |  |  | IC50 | 11 µM
CCc1cccc([C@H](C)NC(=O)c2ccc3c(Cc4cccc(OC(C)(C)C(=O)O)c4)c(C)n(C)c3c2)c1 | Peroxisome proliferator-activated receptor gamma, ligand-binding domain (PPARG, Homo sapiens, UniProt P37231) | reporter gene, luciferase reporter | HEK293T, Gal4-PPARγ LBD |  |  | IC50 | 373 µM
Cc1cc(C)nc(NC(=S)N2CCN(c3ccc(C(F)(F)F)cn3)CC2)c1 | Glyceraldehyde-3-phosphate dehydrogenase (GAPDH, Homo sapiens, UniProt P04406) | enzyme activity, inhibitor |  |  |  | IC50 | > 100 µM
Cc1c(Cc2ccc(OC(C)(C)C(=O)O)cc2)c2ccc(C(=O)N[C@@H](C)c3cccc(C(C)(C)C)c3)cc2n1C | PPARG | ligand displacement, TR-FRET |  |  |  | IC50 | 0.328 µM
Cc1ccc2nc(C)n(/N=C/c3ccc(C(=O)O)cc3)c(=O)c2c1 | collagenase | enzyme activity, inhibitor |  | added: casein substrate |  | IC50 | 18.5 ± 1.56 µg/mL
Cc1c(Cc2cc(Cl)cc(OC(C)C(=O)O)c2)c2ccc(C(=O)NC(C)c3ccc(C(C)(C)C)cc3)cc2n1C (stereo not drawn) | PPARG | ligand displacement, TR-FRET |  |  |  | IC50 | 0.018 µM
O=C(Nc1ccccc1O)C(C(F)(F)F)C(F)(F)F | Rhomboid protease AarA | enzyme activity, inhibitor, fluorescence |  |  |  | IC50 | 9.4 µM
Cc1nc2c(F)cc(-c3nc(Nc4ccc(CC(=O)NCCCC(=O)NO)cc4)ncc3F)cc2n1C(C)C | HDAC1 | enzyme activity, inhibitor |  |  |  | IC50 | 0.0052 µM
Cc1c(Cc2cccc(OC(C)C(=O)O)c2)c2ccc(C(=O)NC(C)c3cccc(C(C)(C)C)c3)cc2n1C (mixture of isomers) | PPARG | ligand displacement, TR-FRET |  |  |  | IC50 | 3.28 µM
O=C(CCc1ccc(CNC(C(=O)O)C2CCCCC2)cn1)NO (stereo not drawn) | Histone deacetylase 5 (HDAC5, Homo sapiens, UniProt Q9UQL6) | enzyme activity, inhibitor |  |  |  | IC50 | > 10 µM
CC[C@H](C)[C@@H]1NC(=O)[C@H](Cc2ccc(O)cc2)NC(=O)CCSCCCSCCNC(=O)[C@H](Cc2c[nH]cn2)NC(=O)[C@H](Cc2ccc(O)cc2)NC(=O)[C@H](CC(=O)O)NC(=O)[C@H](Cc2ccc(O)cc2)NC(=O)[C@H](CC(C)C)NC(=O)[C@H](CCCNC(=N)N)NC1=O | Melanoma-associated antigen 4, MAGE homology domain (Homo sapiens, UniProt P43358) | binding, inhibitor, TR-FRET displacement |  | added: Alexa647-MTP-1 |  | IC50 | 0.0192 ± 0.0018 µM
CC(C)Cn1cc(Cc2cccc(OC(C)(C)C(=O)O)c2)c2ccc(C(=O)N[C@@H](C)c3cccc(C(C)(C)C)c3)cc21 | PPARG | ligand displacement, TR-FRET |  |  |  | IC50 | 0.024 µM
Cc1nnc(C(C)C)n1C1CC2CCC(C1)N2CCC(NC(=O)COCCOCCOCCOCCNC(=O)Cc1ccc(-c2nncnn2)cc1)c1ccccc1 (stereo not drawn) | C-C chemokine receptor type 5 (CCR5, Homo sapiens, UniProt P51681, Y184K) | calcium mobilisation, inhibitor | HEK293T expressing CCR5 | added: PSC-RANTES |  | IC50 | 0.0231 µM and 0.00962 µM
O=C1CC(c2ccccc2)N1S(=O)(=O)c1cccc(-c2ccccc2)c1 (stereo not drawn) | Rhomboid protease AarA | enzyme activity, inhibitor, fluorogenic peptide |  | 108 min pre-incubation |  | IC50 | 8.4 µM
COC(=O)CCCCCNC(=O)c1ccc(Nc2ncc(F)c(-c3cc(F)c4nc(C)n(C(C)C)c4c3)n2)cc1 | HDAC1 | enzyme activity, inhibitor |  |  |  | IC50 | > 1 µM
O=C(Nc1ccc(F)c(Cl)c1)C(C(F)(F)F)C(F)(F)F | Rhomboid protease AarA | enzyme activity, inhibitor, fluorescence |  |  |  | IC50 | 7.4 µM
COC(=O)CCCCCCNC(=O)Cc1ccc(Nc2ncc(F)c(-c3cc(F)c4nc(C)n(C(C)C)c4c3)n2)cc1 | HDAC1 | enzyme activity, inhibitor |  |  |  | IC50 | > 1 µM

Structure (SMILES) | tested on | assay | system | setting | how to read | quantity | value
Cc1cc(NC2CCN(C)CC2)ccc1-c1cc2c(N3CCC[C@H](C(=O)NCc4ccc(OC(F)(F)F)cc4)C3)ncnc2[nH]1 | Glycogen synthase kinase-3 alpha (GSK3A, Homo sapiens, UniProt P49840) | enzyme activity, inhibitor, mobility shift |  |  |  | IC50 | > 8 µM
Cc1c(Cc2cccc(OC(C)C(=O)O)c2)c2ccc(C(=O)NC(C)c3ccc(C(C)(C)C)cc3)cc2n1C (mixture of isomers) | PPARG | ligand displacement, TR-FRET |  |  |  | IC50 | 0.119 µM
CC1C(=O)N(S(=O)(=O)c2ccc(C#N)cc2)C1c1ccccc1 (racemic) | Rhomboid protease AarA | enzyme activity, inhibitor, fluorescence |  |  |  | IC50 | 48 µM
OB(O)c1sccc1/C=N/OCc1ccccc1 | Plasma kallikrein (KLKB1, Homo sapiens, UniProt P03952) | enzyme activity, inhibitor |  |  |  | IC50 | > 100 µM
Cc1c(Cc2ccc(Cl)c(O[C@@H](C)C(=O)O)c2)c2ccc(C(=O)N[C@@H](C)c3ccc(C(C)(C)C)cc3)cc2n1CC1CC1 | PPARG | ligand displacement, TR-FRET |  |  |  | IC50 | 0.00035 µM
CC[C@H](C)[C@@H]1NC(=O)[C@H](Cc2ccc(O)cc2)NC(=O)CCSCc2cccc(c2)CSCCNC(=O)[C@H](Cc2c[nH]cn2)NC(=O)[C@H](Cc2ccc(O)cc2)NC(=O)[C@H](CC(=O)O)NC(=O)[C@H](Cc2ccc(O)cc2)NC(=O)[C@H](CC(C)C)NC(=O)[C@H](CCCNC(=N)N)NC1=O | Melanoma-associated antigen 4, MHD; with RAD18 (Homo sapiens, UniProt P43358) | protein-protein interaction, NanoBRET | HEK293 | 1.5 h |  | IC50 | 34.4 µM
Cc1c(Cc2ccc(OC(C)C(=O)O)cc2)c2ccc(C(=O)NC(C)c3ccc(C(C)(C)C)cc3)cc2n1C (mixture of isomers) | PPARG | ligand displacement, TR-FRET |  |  |  | IC50 | 0.0712 µM
O=C(CCNC(=O)CNC(=O)CC(c1ccccc1)(c1ccccc1)c1ccccc1)NC[C@@H]1CCCN(C(=O)c2ccc(F)cc2)C1 | Muscarinic acetylcholine receptor M2 (CHRM2, Homo sapiens, UniProt P08172) | ligand displacement, radioligand |  | cell membranes |  | IC50 | > 30 µM
COC1CN([C@H]2CC[C@H]([C@@]3(C)Oc4c(Cl)cc(C(=O)NCc5c(SC)cc(C)[nH]c5=O)c(C)c4O3)CC2)C1 |  | RNA-seq, measured: MAML2 | human, whole blood | dose not given, 24 h | reference: pretreatment baseline | log2 fold change | 1.4
CCCSc1nc(Sc2nnnn2C)c2nnn(CCO)c2n1 | Lysine-specific histone demethylase 1A (KDM1A, Homo sapiens, UniProt O60341) | enzyme activity, inhibitor, fluorescence |  |  |  | IC50 | 0.598 µM
NCCOc1ccccc1NC(=O)C(C(F)(F)F)C(F)(F)F | Rhomboid protease AarA | enzyme activity, inhibitor, fluorescence |  |  |  | IC50 | 68 µM
Cc1nc(Nc2ncc(C(=O)Nc3c(C)cccc3Cl)s2)cc(N2CCN(CCNC(=O)c3ccc(C(=O)c4ccc(OCC(=O)NCCOCCOCCCCCCCl)cc4)cc3)CC2)n1 | HCK |  |  |  |  | IC50 | < 0.004 µM
O=C1CC(c2ccccc2)N1S(=O)(=O)c1ccccc1 (stereo not drawn) | Rhomboid protease AarA | enzyme activity, inhibitor, fluorescence |  |  |  | IC50 | 104 µM
O=C(NCc1ccc(OP(=O)(O)O)c(OP(=O)(O)O)c1)OCC1c2ccccc2-c2ccccc21 | Signal transducer and activator of transcription 5B, SH2 (STAT5B, Homo sapiens, UniProt P51692) | ligand displacement, FP |  |  |  | IC50 | 0.46 µM
O=C(NCc1ccc(Cl)cc1)C(C(F)(F)F)C(F)(F)F | Rhomboid protease AarA | enzyme activity, inhibitor, fluorescence |  |  |  | IC50 | 5 µM
Cc1nn(-c2cccc(N)c2)c(=O)c2cnc(Nc3ccc(N4CCNCC4)cc3)nc12 | HCK | enzyme activity, inhibitor |  |  |  | IC50 | > 10 µM

A few entries again:
Structure (SMILES) | tested on | assay | system | setting | how to read | quantity | value
NCCOc1ccccc1NC(=O)C(C(F)(F)F)C(F)(F)F | Rhomboid protease AarA | enzyme activity, inhibitor, fluorescence |  |  |  | IC50 | 68 µM
Cc1c(Cc2ccc(OC(C)(C)C(=O)O)cc2)c2ccc(C(=O)N[C@@H](C)c3cccc(C(C)(C)C)c3)cc2n1C | PPARG | ligand displacement, TR-FRET |  |  |  | IC50 | 0.328 µM
CC[C@H](C)[C@@H]1NC(=O)[C@H](Cc2ccc(O)cc2)NC(=O)CCSCc2cccc(c2)CSCCNC(=O)[C@H](Cc2c[nH]cn2)NC(=O)[C@H](Cc2ccc(O)cc2)NC(=O)[C@H](CC(=O)O)NC(=O)[C@H](Cc2ccc(O)cc2)NC(=O)[C@H](CC(C)C)NC(=O)[C@H](CCCNC(=N)N)NC1=O | Melanoma-associated antigen 4, MHD; with RAD18 (Homo sapiens, UniProt P43358) | protein-protein interaction, NanoBRET | HEK293 | 1.5 h |  | IC50 | 34.4 µM
Cc1nnc(C(C)C)n1C1CC2CCC(C1)N2CCC(NC(=O)COCCOCCOCCOCCNC(=O)Cc1ccc(-c2nncnn2)cc1)c1ccccc1 (stereo not drawn) | C-C chemokine receptor type 5 (CCR5, Homo sapiens, UniProt P51681, Y184K) | calcium mobilisation, inhibitor | HEK293T expressing CCR5 | added: PSC-RANTES |  | IC50 | 0.0231 µM and 0.00962 µM
